Experimental data of several laboratories.
Parts stem from different laboratories: compare values within a part only. Substitutions count along the parent as printed.

Sample 1
Target: ABI1, truncated, D143A, DHFR fusion (Arabidopsis thaliana)
Technique: DHFR PCA, deep sequencing
Sample: yeast
Notes: methotrexate growth selection, single substitutions
With: (+)-ABA 2500 µM
Relative to: wild-type fitted maximum
Direction: higher = stronger binding
Starting sequence: PYL1, truncated, DHFR fusion (Arabidopsis thaliana); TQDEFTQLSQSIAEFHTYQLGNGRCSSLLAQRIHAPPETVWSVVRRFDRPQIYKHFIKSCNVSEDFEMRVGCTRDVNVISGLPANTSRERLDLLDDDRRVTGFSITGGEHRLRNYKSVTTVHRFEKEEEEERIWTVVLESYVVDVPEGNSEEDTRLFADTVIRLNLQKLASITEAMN; partner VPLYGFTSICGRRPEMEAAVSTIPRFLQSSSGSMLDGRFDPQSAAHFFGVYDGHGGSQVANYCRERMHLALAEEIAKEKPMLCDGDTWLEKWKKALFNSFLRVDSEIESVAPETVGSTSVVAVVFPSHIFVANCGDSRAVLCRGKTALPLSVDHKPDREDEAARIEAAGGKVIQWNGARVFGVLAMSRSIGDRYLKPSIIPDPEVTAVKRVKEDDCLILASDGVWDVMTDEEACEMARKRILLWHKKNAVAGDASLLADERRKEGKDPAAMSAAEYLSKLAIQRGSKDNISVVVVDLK
Substitution	relative binding score [%]
E4A	101
A175E	94.2
E4I	103
D65M	91.3
R90E	98.9
L94C	96.8
E125R	102
R24L	96.4
D153P	19.3
I172T	96.7
R24K	97.6
T120S	103
A13M	95.4
H122S	95.4
D159R	76.2
L164Q	98.7
T86H	100
D48W	73.8
T135D	6.48
F103N	5.73
V143W	0.0302

Sample 2
Target: Phosphate system positive regulatory protein PHO4, full length, GST-tagged (PHO4, Saccharomyces cerevisiae, UniProt P07270, residues 1-312)
Technique: competition protein-binding microarray
Form: double-stranded DNA, one strand shown
Sample: in vitro
Concentration: 2 µM
Notes: whole 60-bp probe, lowest competitor level
With: Cbf1 competitor, 0.05 µM
Direction: higher = stronger binding
Constant ends, left off below: … GTCTTGATTCGCTTGACGCTGCTG
Construct (chain): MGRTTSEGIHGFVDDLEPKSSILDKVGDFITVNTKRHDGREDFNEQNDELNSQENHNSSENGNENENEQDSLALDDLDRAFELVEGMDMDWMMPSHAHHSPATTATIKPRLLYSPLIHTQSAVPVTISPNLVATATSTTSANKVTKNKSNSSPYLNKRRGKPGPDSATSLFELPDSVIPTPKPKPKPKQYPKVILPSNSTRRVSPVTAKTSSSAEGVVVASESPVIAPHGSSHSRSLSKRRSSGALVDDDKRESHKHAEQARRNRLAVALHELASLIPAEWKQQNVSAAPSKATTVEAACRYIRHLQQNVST
Strand	fluorescence intensity
CGGGGTTAAGTTTGTAGGGTGGGTGGCTTGCAGCAG	5360 a.u.
ATTTCGGGGCGGGTCCCCGTGGTGACGCTGGTGACG	8720 a.u.
AGGTGCCTTCGGTAACATGTGTCTTGGTGGTCGTAT	11300 a.u.
TTGGTACGAAGAAAGCACGTGGATTCAGCAATTCAA	17600 a.u.
CGGATGCGCTGGCTGTACGTGACGGTGAAGTAGCTA	4680 a.u.
CTTCTGTAAATTTTTCACGTGCATTGACGCGCCCCG	12000 a.u.
GGGATTTCGTTACAGCACGTGGCAAGCAGAGGAAGA	18700 a.u.
CTAACGAAGGTTTGTACAGTGGGTGACAAGCCAAGT	3680 a.u.
AATTCCACACCGCACCATGTGCCCATCAAGTCCAAC	11700 a.u.
GCAGACTTGATCGTCTTCGTGATGGTAGCTTTCTGT	3910 a.u.
AGGACGACTGCTTTACTCGTGAAAATGGAACACAAG	4770 a.u.
TTGAGTATTATGGTGGCATACTTTCAAGGGAGCTTG	3740 a.u.
TGGTCGAGCTTTTTTCACATGCGGTGGGGAAGGCGG	6290 a.u.
CTAACGAAGGTTTGCTTTGTGGGTGACAAGCCAAGT	4000 a.u.
CTAACGAAGGTTTGGTTGGTGGGTGACAAGCCAAGT	3580 a.u.
GTCTTGTCTCATTGAACGGTGGGTGTCCCCACTTCA	4470 a.u.
ATATATACTTTAGCATACGTGTGAATACGCCATATC	6150 a.u.
CAATTAGAAAAACAGCACGTGGAGGTATATAGAGAG	19100 a.u.
TTTGGCGCCAATGAACTCGTGGTCGGGACCTCCACC	7980 a.u.

Sample 3
Target: RING finger protein unkempt homolog, zinc fingers 1-6, GST-SBP tag (UNK, Homo sapiens, UniProt Q9C0B0, residues 30-357)
UniProt Q9C0B0, sequence (30-357, looked up): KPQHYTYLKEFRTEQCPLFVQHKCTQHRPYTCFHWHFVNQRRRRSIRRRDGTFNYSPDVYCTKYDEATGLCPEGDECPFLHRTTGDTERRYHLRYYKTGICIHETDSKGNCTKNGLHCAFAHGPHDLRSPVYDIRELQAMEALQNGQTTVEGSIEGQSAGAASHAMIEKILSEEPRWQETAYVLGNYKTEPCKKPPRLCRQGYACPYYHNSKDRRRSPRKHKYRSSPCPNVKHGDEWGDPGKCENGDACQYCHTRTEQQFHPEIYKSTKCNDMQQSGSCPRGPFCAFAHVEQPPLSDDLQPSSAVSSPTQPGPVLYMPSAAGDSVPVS
Technique: RNA Bind-n-Seq
Form: RNA
Sample: in vitro
Concentration: not given
Notes: RNA with constant flanks, human and mouse sites, ends assumed
Relative to: input RNA pool
Direction: higher = stronger binding
Constant ends, left off below: GGGAGUUCUACAGUCCGACGAUC … CAACAGAGGAUUGAGCAUCA
Strand	bound/input enrichment [ratio]
UGUGCAUCUGACGGUCCUGGUCUUUUGCAGUGCGUUUGUGCUGAUGGUUUCCAUGGAUACAAGUGUAUGAGGCAGGGCUCAUUUUCACUGCUUAUGUUCUUUGGGAUUCUGGGAUCCACC	0.147
CUUCACACUGGUGAGAAACCCUAUGUGUGUAAUGAAUGUGGAAAGGCCUUUGCGCGUGGCUUACUACUUAUACAACAUCAGAGAAUUCAUACUGGUGAGAAACCAUAUCAAUGUAAGGAA	0.171
CUGAACAGCUACUAUUCCCAGCAGGGGGUUCCAGCCAGCAUCACAUUUUUUAGUCCCUCUGGCCUCACAUACAGUCUCAAGCACAUUCAGGAGUUAUCUGGUGACAAUAUCGAUCAAAUU	0.671
UGUCAGGGUCAUCUCCAGCCUUUAGGGGACAGACCACGCCAGCUCCUUGUUCUCACCUUUUUGCCUUGGAACACAUGAGGAUUGUCAUUGACAAAACAAGCUUUUCAUUUUCAACUCCUG	0.139
UUUACUGUAGUGUAUCUUGUACAGAUAACAUGUAUUUUUAAAGGAAAAAAAACGGAAUUGAAGCUAUUUUUUCUUGCAUUUCUAAUUGACCUGAGGGACAUUCCGUUUGAAAUGUACUGA	0.278
ACAGCAUUCAUAGUAGAAAGAGACUUUGGUGGAGUCACUAAUGGGAAACCCGAAGAUAAAUUAGGCAUUCGGGGCUCCAACACUUGUGAAGUCCAUUUUGAAAACACCAAGAUACCUGUG	0.702
UCAAGCUGUGCUGUAAAUAUCAUUUAGACCUAUUGAGAAUUAACAGCAAAUCUGAGCUACUUUAGUGUUACCAACUAUUAGUCUGCUGACUGUUUCUAUAACAAAAUACCUGAGACAAUC	1.3
UCUGACAUUUCUACUCUUGGACACCUGGUAAUAACCACUCAGGGAGGAUAUGUAAAAAUACUAGAUCUUUCAAACUUUGAAAUUUUGGCCAAAGUGGAGCCUCCCAAAAAGGAGGGCACU	0.36

Sample 4
Target: Interferon regulatory factor 3, full length, phosphomimetic (IRF3, Homo sapiens, UniProt Q14653, residues 1-427, S386D/S396D/S398D/S402D/T404D/S405D)
UniProt Q14653, sequence (whole entry, unmodified, looked up): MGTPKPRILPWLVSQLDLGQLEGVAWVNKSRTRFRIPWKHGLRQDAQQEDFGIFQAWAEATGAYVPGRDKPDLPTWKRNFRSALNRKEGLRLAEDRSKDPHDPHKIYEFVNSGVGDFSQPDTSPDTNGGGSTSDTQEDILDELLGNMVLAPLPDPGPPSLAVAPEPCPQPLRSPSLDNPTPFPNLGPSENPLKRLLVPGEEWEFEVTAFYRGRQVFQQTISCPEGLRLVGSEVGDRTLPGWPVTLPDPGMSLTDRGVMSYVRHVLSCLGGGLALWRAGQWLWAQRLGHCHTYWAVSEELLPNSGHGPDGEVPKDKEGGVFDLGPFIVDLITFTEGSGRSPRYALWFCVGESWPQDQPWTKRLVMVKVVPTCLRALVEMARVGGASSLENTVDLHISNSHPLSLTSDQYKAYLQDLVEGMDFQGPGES
Technique: protein-binding microarray
Form: double-stranded DNA, one strand shown
Sample: in vitro
Concentration: 2540 nM top
Notes: 60-bp whole probe
With: salmon DNA 0.4 mg/ml
Relative to: random background probes
Direction: higher = stronger binding
Constant ends, left off below: GCCTAGCAC … GTCTTGATTCGCTTGACGCTGCTG
Strand	fitted relative affinity [z-score]
GACGATATCAGTCTCGAGTCGTGCTAG	1.56
TCACATGTTGCTCTCCGACTGTGCTAG	0.13
ATATATTTATGTATACACACGTGCTAG	0.734
TCAACCCTCCCTCTGTAAGTGTGCTAG	-0.053
TCAAATCTCTCATGTTACACTGTGCTA	0.269
TTAGACCTCAGTTTCGATTAGTGCTAG	2.75
GCCGGTCTCCTACTGCTGACGTGCTAG	2.14
TTAGAATTCGGGTATCGATTAGTGCTA	0.403
TCAATCGTCCCTTTGAGACTGTGCTAG	0.415
GAGATGATCCAGTTTTACCTGGTGCTA	0.282
TTAGAACTGAGACTGTATTAGTGCTAG	-0.41
GACGATATCGACTTTCGGGACGTGCTA	0.679
TTTGATATCAGTATCGATTAGTGCTAG	1.84
TAAGGTTTCGGGTTTCGGTTAGTGCTA	6.49
GACGGTTTCGGACTGGGGATGTGCTAG	4.2
ACCTAATTCACTATTACCAAGTGCTAG	2.01
TTAGGACTGCTTATCCCTTAGTGCTAG	-0.226
ATAGGTTCCGGTTTCGGTTAGTGCTAG	7.56
CTAGATTTCAGTTCCGATTAGTGCTAG	3.75

For quick reference, copied from above (sample 3):
Strand	bound/input enrichment [ratio]
CUUCACACUGGUGAGAAACCCUAUGUGUGUAAUGAAUGUGGAAAGGCCUUUGCGCGUGGCUUACUACUUAUACAACAUCAGAGAAUUCAUACUGGUGAGAAACCAUAUCAAUGUAAGGAA	0.171
UGUGCAUCUGACGGUCCUGGUCUUUUGCAGUGCGUUUGUGCUGAUGGUUUCCAUGGAUACAAGUGUAUGAGGCAGGGCUCAUUUUCACUGCUUAUGUUCUUUGGGAUUCUGGGAUCCACC	0.147
UCAAGCUGUGCUGUAAAUAUCAUUUAGACCUAUUGAGAAUUAACAGCAAAUCUGAGCUACUUUAGUGUUACCAACUAUUAGUCUGCUGACUGUUUCUAUAACAAAAUACCUGAGACAAUC	1.3
UCUGACAUUUCUACUCUUGGACACCUGGUAAUAACCACUCAGGGAGGAUAUGUAAAAAUACUAGAUCUUUCAAACUUUGAAAUUUUGGCCAAAGUGGAGCCUCCCAAAAAGGAGGGCACU	0.36
UUUACUGUAGUGUAUCUUGUACAGAUAACAUGUAUUUUUAAAGGAAAAAAAACGGAAUUGAAGCUAUUUUUUCUUGCAUUUCUAAUUGACCUGAGGGACAUUCCGUUUGAAAUGUACUGA	0.278
ACAGCAUUCAUAGUAGAAAGAGACUUUGGUGGAGUCACUAAUGGGAAACCCGAAGAUAAAUUAGGCAUUCGGGGCUCCAACACUUGUGAAGUCCAUUUUGAAAACACCAAGAUACCUGUG	0.702
UGUCAGGGUCAUCUCCAGCCUUUAGGGGACAGACCACGCCAGCUCCUUGUUCUCACCUUUUUGCCUUGGAACACAUGAGGAUUGUCAUUGACAAAACAAGCUUUUCAUUUUCAACUCCUG	0.139
CUGAACAGCUACUAUUCCCAGCAGGGGGUUCCAGCCAGCAUCACAUUUUUUAGUCCCUCUGGCCUCACAUACAGUCUCAAGCACAUUCAGGAGUUAUCUGGUGACAAUAUCGAUCAAAUU	0.671
